Measured values gathered from unrelated publications.
Each numbered part is a random draw from the data of one study; scales do not carry over between parts.
Sequence of UniProt P10721 (whole entry, unmodified, looked up): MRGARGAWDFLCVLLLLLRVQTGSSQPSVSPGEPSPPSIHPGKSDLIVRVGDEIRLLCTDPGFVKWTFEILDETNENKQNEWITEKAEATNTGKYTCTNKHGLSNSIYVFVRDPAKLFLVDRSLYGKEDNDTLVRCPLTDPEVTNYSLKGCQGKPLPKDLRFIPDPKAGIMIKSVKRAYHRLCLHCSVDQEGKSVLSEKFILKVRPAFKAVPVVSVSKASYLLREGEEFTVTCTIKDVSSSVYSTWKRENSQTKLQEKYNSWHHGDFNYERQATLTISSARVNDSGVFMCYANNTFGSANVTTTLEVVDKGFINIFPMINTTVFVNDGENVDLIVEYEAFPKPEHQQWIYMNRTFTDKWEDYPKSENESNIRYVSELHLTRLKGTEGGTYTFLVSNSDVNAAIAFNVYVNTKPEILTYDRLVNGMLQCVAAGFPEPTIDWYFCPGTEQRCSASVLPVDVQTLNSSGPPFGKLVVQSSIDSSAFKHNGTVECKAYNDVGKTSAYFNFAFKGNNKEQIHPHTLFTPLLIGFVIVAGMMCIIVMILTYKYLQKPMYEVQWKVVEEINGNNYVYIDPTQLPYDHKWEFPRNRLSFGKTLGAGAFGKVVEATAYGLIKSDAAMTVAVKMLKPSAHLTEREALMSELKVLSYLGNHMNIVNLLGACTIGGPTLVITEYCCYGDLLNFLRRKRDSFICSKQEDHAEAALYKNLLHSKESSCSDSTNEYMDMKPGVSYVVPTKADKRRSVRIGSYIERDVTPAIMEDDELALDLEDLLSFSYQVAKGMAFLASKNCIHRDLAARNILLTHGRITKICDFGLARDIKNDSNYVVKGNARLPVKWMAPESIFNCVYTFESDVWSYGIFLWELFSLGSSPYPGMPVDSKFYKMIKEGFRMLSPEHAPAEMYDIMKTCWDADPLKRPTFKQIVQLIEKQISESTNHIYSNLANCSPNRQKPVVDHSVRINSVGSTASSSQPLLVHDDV
Sequence of UniProt O00750 (whole entry, looked up): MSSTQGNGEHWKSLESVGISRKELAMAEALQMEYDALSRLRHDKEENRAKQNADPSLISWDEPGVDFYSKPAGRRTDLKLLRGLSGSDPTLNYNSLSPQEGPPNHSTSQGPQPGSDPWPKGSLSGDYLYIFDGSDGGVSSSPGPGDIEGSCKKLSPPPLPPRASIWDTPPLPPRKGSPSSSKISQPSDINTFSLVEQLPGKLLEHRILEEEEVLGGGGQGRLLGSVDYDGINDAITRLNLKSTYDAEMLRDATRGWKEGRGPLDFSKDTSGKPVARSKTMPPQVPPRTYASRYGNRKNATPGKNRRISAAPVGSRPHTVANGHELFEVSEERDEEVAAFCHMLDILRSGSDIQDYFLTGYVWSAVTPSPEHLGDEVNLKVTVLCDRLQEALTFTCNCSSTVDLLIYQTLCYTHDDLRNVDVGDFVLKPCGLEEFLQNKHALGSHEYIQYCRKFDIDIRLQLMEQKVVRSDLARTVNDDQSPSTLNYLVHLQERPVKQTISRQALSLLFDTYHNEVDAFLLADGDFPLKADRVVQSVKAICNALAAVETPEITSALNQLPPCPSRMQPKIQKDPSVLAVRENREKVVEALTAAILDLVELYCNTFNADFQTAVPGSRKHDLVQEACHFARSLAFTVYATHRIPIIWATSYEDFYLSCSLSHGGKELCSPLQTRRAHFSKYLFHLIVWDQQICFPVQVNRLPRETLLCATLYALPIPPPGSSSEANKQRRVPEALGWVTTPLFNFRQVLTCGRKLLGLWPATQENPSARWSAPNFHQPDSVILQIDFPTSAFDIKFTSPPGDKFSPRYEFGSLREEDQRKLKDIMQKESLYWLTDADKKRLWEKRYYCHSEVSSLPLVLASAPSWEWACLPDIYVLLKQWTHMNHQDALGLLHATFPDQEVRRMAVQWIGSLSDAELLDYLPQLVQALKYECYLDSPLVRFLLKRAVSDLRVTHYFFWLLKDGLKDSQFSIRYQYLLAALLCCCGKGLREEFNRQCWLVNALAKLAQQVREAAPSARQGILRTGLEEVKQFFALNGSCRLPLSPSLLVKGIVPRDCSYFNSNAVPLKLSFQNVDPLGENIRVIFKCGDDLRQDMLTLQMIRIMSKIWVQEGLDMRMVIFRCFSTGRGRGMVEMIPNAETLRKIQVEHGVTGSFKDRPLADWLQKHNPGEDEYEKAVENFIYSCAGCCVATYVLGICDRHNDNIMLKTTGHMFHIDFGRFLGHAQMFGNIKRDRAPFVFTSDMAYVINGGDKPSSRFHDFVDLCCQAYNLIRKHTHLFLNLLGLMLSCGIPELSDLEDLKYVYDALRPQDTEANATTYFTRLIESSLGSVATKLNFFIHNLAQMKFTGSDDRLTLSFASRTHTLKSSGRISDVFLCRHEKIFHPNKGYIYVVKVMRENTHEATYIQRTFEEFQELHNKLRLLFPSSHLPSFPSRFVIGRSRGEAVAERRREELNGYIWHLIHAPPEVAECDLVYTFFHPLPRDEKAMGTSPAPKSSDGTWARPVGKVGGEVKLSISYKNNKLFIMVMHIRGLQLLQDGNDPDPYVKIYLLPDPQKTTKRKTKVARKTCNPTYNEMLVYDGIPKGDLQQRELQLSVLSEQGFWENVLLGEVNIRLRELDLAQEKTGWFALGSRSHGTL
Sequence of UniProt Q86Z02 (whole entry, looked up): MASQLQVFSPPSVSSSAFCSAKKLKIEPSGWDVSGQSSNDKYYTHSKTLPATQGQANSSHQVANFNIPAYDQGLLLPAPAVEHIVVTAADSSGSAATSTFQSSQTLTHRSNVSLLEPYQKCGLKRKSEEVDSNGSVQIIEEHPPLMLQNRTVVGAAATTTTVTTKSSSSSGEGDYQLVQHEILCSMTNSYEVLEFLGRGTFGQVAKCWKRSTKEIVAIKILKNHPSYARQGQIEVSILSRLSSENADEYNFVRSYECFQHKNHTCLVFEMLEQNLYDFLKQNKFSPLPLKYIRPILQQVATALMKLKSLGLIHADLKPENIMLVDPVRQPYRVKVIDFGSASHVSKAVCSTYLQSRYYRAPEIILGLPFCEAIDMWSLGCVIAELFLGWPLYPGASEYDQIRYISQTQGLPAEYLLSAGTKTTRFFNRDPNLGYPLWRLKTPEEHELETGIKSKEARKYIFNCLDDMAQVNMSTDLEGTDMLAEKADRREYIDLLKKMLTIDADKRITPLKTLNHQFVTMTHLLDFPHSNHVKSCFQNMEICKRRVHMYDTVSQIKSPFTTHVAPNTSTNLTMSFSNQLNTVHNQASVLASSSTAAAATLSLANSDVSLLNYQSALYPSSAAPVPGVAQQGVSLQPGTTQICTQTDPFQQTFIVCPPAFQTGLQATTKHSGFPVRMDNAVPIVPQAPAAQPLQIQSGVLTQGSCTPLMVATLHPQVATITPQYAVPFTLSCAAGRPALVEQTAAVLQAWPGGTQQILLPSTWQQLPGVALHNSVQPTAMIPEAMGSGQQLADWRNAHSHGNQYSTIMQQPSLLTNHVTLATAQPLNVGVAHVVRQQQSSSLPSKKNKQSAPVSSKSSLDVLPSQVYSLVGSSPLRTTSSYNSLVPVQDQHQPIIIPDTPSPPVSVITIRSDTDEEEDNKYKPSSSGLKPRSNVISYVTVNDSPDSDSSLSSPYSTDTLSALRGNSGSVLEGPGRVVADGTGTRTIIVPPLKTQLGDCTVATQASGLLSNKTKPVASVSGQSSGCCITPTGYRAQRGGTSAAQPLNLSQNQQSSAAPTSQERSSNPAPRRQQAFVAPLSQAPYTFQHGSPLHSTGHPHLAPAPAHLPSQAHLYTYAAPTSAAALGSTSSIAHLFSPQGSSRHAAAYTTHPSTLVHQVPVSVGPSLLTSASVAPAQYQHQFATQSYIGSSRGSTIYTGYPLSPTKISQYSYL
Sequence of UniProt Q13546 (whole entry, looked up): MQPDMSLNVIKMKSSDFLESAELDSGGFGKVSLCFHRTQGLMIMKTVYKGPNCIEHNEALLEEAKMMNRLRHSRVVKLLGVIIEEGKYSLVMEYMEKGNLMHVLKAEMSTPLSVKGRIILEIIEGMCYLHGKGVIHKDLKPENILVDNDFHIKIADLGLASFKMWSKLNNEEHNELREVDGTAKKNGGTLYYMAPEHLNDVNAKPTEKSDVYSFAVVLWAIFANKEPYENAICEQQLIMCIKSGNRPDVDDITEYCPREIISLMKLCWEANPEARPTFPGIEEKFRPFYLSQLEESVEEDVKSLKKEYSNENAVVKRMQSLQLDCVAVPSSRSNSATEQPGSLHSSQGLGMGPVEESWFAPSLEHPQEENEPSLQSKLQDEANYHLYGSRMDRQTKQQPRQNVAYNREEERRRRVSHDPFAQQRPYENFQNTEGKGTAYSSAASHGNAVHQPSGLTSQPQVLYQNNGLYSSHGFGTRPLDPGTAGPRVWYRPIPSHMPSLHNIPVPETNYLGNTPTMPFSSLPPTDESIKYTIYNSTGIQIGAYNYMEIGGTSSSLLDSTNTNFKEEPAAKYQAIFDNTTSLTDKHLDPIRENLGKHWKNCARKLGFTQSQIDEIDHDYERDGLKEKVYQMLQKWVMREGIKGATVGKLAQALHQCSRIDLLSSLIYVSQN

Block 1 — read-out: cell-free assay; technique: competition with immobilised ligand; tested at: 1 µM
Compound: CN(C)C(=O)Cn1cc(-c2nc(C3(c4ccc(-c5cnc(N)nc5)cc4)CC3)no2)cn1
| target | remaining binding |
| --- | --- |
| Homeodomain-interacting protein kinase 1 (HIPK1, Homo sapiens, UniProt Q86Z02) | 63% |
| Citron Rho-interacting kinase (CIT, Homo sapiens, UniProt O14578) | 86% |
| Serine/threonine-protein kinase Sgk3 (SGK3, Homo sapiens, UniProt Q96BR1) | 75% |
| RAC-alpha serine/threonine-protein kinase (AKT1, Homo sapiens, UniProt P31749) | 97% |
| Serine/threonine-protein kinase N1 (PKN1, Homo sapiens, UniProt Q16512) | 84% |
| Serine/threonine-protein kinase 38 (STK38, Homo sapiens, UniProt Q15208) | 84% |
| Ribosomal protein S6 kinase alpha-2, C-terminal kinase domain (RPS6KA2, Homo sapiens, UniProt Q15349) | 100% |
| Dual specificity protein kinase CLK4 (CLK4, Homo sapiens, UniProt Q9HAZ1) | 89% |
| Receptor-interacting serine/threonine-protein kinase 1 (RIPK1, Homo sapiens, UniProt Q13546) | 89% |
| Tyrosine-protein kinase Srms (SRMS, Homo sapiens, UniProt Q9H3Y6) | 73% |
| Myosin light chain kinase, smooth muscle (MYLK, Homo sapiens, UniProt Q15746) | 72% |
| Phosphatidylinositol 4,5-bisphosphate 3-kinase catalytic subunit delta isoform (PIK3CD, Homo sapiens, UniProt O00329) | 100% |
| Epidermal growth factor receptor (EGFR, Homo sapiens, UniProt P00533, G719S) | 100% |
| Cytoplasmic tyrosine-protein kinase BMX (BMX, Homo sapiens, UniProt P51813) | 88% |
| Mast/stem cell growth factor receptor Kit (KIT, Homo sapiens, UniProt P10721, V559D/V654A) | 100% |
| Non-receptor tyrosine-protein kinase TNK1 (TNK1, Homo sapiens, UniProt Q13470) | 96% |
| 1-phosphatidylinositol 3-phosphate 5-kinase (PIKFYVE, Homo sapiens, UniProt Q9Y2I7) | 98% |
| SNF-related serine/threonine-protein kinase (SNRK, Homo sapiens, UniProt Q9NRH2) | 100% |
| Tyrosine-protein kinase ABL1, non-phosphorylated (ABL1, Homo sapiens, UniProt P00519) | 93% |
| Phosphatidylinositol 4-phosphate 3-kinase C2 domain-containing subunit beta (PIK3C2B, Homo sapiens, UniProt O00750) | 100% |
| Ephrin type-A receptor 5 (EPHA5, Homo sapiens, UniProt P54756) | 41% |
| Dual specificity tyrosine-phosphorylation-regulated kinase 1A (DYRK1A, Homo sapiens, UniProt Q13627) | 66% |
| Phosphatidylinositol 4,5-bisphosphate 3-kinase catalytic subunit alpha isoform (PIK3CA, Homo sapiens, UniProt P42336, H1047Y) | 94% |
| Ephrin type-B receptor 1 (EPHB1, Homo sapiens, UniProt P54762) | 100% |
| Mast/stem cell growth factor receptor Kit (KIT, Homo sapiens, UniProt P10721, D816V) | 92% |

Block 2 — technique: PRP chromatography estimate; medium: 1,9-decadiene/PBS; pH: 7.4
| Structure (SMILES) | logD |
| --- | --- |
| CC(C)C[C@@H]1NC(=O)[C@H](CC(C)C)NC(=O)[C@@H](CC(C)C)NC(=O)[C@@H](C)NC(=O)[C@H](C(C)C)NC(=O)[C@H](Cc2cscn2)NC(=O)[C@H](C)NC1=O | -2.04 |
| CC(C)C[C@@H]1NC(=O)[C@H](CCC(=O)N2CCCC2)NC(=O)[C@@H](C(C)C)NC(=O)[C@H](C)NC(=O)[C@H](CC(C)C)NC(=O)[C@@H](CC(C)C)NC(=O)[C@H](CC(C)C)NC1=O | -0.737 |
| CC(C)C[C@@H]1NC(=O)[C@H](CC(C)C)NC(=O)[C@@H](CC(C)C)NC(=O)[C@H](C(C)C)NC(=O)[C@@H](Cc2cscn2)NC(=O)[C@H](Cc2cscn2)NC(=O)[C@H](CCC(=O)N2CCCC2)NC1=O | -1.19 |
| CC(C)C[C@@H]1NC(=O)[C@H](C)NC(=O)[C@H](Cc2cscn2)NC(=O)[C@H](CCC(=O)N2CCCC2)NC(=O)[C@H](CC(C)C)NC(=O)[C@H](CC(C)C)NC(=O)[C@@H](C(C)C)NC1=O | -2.08 |
| CC(C)C[C@@H]1NC(=O)[C@H](Cc2cscn2)NC(=O)[C@H](CC(C)C)NC(=O)[C@@H](CCC(=O)N2CCCC2)NC(=O)[C@H](CC(C)C)NC(=O)[C@@H](CC(C)C)NC(=O)[C@H](CC(C)C)NC1=O | 0.0656 |
| CC(C)C[C@@H]1NC(=O)[C@H](Cc2cscn2)NC(=O)[C@H](Cc2cscn2)NC(=O)[C@H](CC(C)C)NC(=O)[C@@H](CCC(=O)N2CCCC2)NC(=O)[C@H](CC(C)C)NC(=O)[C@@H](CC(C)C)NC1=O | -0.869 |
| CC(C)C[C@@H]1NC(=O)[C@@H](C)NC(=O)[C@H](Cc2cscn2)NC(=O)[C@@H](C(C)C)NC(=O)[C@H](C(C)C)NC(=O)[C@H](CC(C)C)NC(=O)[C@@H](CC(C)C)NC1=O | -0.834 |
| CC(C)C[C@@H]1NC(=O)[C@H](C)NC(=O)[C@@H](CC(C)C)NC(=O)[C@H](C)NC(=O)[C@@H](CCC(=O)N2CCCC2)NC(=O)[C@H](CC(C)C)NC(=O)[C@@H](CC(C)C)NC1=O | -1.68 |
| CC(C)C[C@@H]1NC(=O)[C@H](C)NC(=O)[C@@H](C(C)C)NC(=O)[C@H](C(C)C)NC(=O)[C@H](CC(C)C)NC(=O)[C@@H](CC(C)C)NC(=O)[C@H](CC(C)C)NC1=O | 0.347 |

Block 3 — species: mouse; medium: microsomes or S9; tested at: 2 µM; time: 0.5 h
| SMILES | remaining compound [%] |
| --- | --- |
| Cc1csc2c(N3CCC(S(=O)(=O)NC(C)C)C3)ncnc12 (centres unmarked) | 0.404 |
| OCCC1(CNc2cnc3cc(Cl)c(Cl)cc3n2)CCOC1 (centres unmarked) | 20.1 |
| CS(=O)(=O)N(C#Cc1ccccc1F)Cc1ccccc1 | < 1 |
| c1ccc(-c2csc(Oc3ccncc3)n2)cc1 | 50.9 |
| CNC(=O)CC1CCOC2(CCN(C(=O)C3CCC3)CC2)C1 (centres unmarked) | 95.6 |
| COc1nc(OC)c(C(C)C)c(-c2nnn(C)n2)n1 | 0.719 |

Block 4 — read-out: enzyme activity; tested at: 5 µM; relative to: untreated control
Compound: O=C(Nc1cnn(-c2csc(C(=O)NC3COC3)c2)c1)Nc1ccccc1Cl
| target | remaining activity |
| --- | --- |
| Protein kinase C gamma type (PRKCG, Homo sapiens, UniProt P05129) | 97.2% |
| Tyrosine-protein kinase receptor TYRO3 (TYRO3, Homo sapiens, UniProt Q06418) | 75.4% |
| Ephrin type-A receptor 4 (EPHA4, Homo sapiens, UniProt P54764) | 98.2% |
| SRSF protein kinase 1 (SRPK1, Homo sapiens, UniProt Q96SB4) | 94.4% |
| MAP kinase-activated protein kinase 3 (MAPKAPK3, Homo sapiens, UniProt Q16644) | 77.3% |
| Tyrosine-protein kinase Fes/Fps (FES, Homo sapiens, UniProt P07332) | 96.1% |
| Ephrin type-B receptor 4 (EPHB4, Homo sapiens, UniProt P54760) | 97% |

Block 5 — read-out: enzyme activity; mode: inhibitor; tested at: 10 µM
Target: Calcium/calmodulin-dependent protein kinase type II subunit alpha (CAMK2A, Homo sapiens, UniProt Q9UQM7)
Sequence of UniProt Q9UQM7 (whole entry, looked up): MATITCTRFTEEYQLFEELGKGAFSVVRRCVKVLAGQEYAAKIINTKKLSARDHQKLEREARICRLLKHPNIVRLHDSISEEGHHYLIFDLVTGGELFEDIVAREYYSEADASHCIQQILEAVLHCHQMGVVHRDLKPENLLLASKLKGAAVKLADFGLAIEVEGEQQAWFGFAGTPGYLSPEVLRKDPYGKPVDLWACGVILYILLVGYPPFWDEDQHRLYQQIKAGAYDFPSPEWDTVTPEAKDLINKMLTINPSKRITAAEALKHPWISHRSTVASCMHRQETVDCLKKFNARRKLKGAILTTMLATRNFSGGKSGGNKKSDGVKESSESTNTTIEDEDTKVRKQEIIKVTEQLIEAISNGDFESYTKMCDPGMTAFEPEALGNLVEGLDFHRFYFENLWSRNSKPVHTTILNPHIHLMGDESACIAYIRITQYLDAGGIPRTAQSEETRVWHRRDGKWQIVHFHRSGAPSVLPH
| Compound | inhibition [%] |
| --- | --- |
| CCCC(=O)OC[C@@H](OC(=O)CCC)[C@@H](OC(=O)CCC)[C@H](Cn1c2nc(=O)[nH]c(=O)c-2nc2cc(C)c(C)cc21)OC(=O)CCC | -11 |
| N=c1nc(N2CCCCC2)cc(N)n1O | 7 |
| c1ccc(CN(CC2=NCCN2)c2ccccc2)cc1 | -10 |
| Cc1ccc(CO)o1 | 13 |
| C=CCc1ccc(O)c(O)c1 | -34 |
| CCCOc1cc(N)ccc1C(=O)OCCN(CC)CC | -14 |
| OCc1ccccc1O | -2 |
| O=c1cc(-c2ccc(O)c(O)c2)oc2cc(O)cc(O)c12 | 2 |
| C[C@@H]1C[C@H]2[C@@H]3CCC4=CC(=O)C=C[C@]4(C)[C@@]3(F)[C@@H](O)C[C@]2(C)[C@H]1C(=O)CO | -11 |

Excerpt of the above (block 5):
| Compound | inhibition [%] |
| --- | --- |
| CCCOc1cc(N)ccc1C(=O)OCCN(CC)CC | -14 |
| OCc1ccccc1O | -2 |
| O=c1cc(-c2ccc(O)c(O)c2)oc2cc(O)cc(O)c12 | 2 |
